Assay results collected from several papers.
Every numbered part comes from another study and shows a few of its results, in no order. Several values in a cell are separate wells, animals, samples, runs or records.
Chain of UniProt Q00532 (whole entry, looked up): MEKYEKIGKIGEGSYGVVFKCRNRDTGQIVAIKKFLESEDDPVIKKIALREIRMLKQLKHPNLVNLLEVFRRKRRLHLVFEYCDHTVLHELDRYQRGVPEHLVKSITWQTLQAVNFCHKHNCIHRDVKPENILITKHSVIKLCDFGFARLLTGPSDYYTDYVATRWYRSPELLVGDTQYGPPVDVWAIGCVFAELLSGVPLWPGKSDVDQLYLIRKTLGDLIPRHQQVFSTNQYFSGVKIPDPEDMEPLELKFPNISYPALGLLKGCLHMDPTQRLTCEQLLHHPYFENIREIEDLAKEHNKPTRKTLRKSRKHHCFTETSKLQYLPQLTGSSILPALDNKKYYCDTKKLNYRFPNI
Chain of UniProt P42681 (whole entry, looked up): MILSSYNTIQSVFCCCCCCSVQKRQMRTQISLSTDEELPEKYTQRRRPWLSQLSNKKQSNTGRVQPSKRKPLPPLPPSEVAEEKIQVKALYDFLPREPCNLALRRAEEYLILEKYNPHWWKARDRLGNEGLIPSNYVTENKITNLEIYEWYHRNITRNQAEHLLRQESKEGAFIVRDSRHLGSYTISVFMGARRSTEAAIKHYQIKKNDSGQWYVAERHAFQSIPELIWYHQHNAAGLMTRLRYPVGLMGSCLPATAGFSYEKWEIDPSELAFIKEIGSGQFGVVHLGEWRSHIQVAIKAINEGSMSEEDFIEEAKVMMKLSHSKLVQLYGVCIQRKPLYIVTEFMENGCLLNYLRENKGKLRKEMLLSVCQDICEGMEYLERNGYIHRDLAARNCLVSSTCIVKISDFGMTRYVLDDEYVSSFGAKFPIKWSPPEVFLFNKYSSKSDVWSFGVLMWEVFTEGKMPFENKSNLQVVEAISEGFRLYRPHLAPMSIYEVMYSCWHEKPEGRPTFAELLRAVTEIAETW
Chain of UniProt O94806 (whole entry, looked up): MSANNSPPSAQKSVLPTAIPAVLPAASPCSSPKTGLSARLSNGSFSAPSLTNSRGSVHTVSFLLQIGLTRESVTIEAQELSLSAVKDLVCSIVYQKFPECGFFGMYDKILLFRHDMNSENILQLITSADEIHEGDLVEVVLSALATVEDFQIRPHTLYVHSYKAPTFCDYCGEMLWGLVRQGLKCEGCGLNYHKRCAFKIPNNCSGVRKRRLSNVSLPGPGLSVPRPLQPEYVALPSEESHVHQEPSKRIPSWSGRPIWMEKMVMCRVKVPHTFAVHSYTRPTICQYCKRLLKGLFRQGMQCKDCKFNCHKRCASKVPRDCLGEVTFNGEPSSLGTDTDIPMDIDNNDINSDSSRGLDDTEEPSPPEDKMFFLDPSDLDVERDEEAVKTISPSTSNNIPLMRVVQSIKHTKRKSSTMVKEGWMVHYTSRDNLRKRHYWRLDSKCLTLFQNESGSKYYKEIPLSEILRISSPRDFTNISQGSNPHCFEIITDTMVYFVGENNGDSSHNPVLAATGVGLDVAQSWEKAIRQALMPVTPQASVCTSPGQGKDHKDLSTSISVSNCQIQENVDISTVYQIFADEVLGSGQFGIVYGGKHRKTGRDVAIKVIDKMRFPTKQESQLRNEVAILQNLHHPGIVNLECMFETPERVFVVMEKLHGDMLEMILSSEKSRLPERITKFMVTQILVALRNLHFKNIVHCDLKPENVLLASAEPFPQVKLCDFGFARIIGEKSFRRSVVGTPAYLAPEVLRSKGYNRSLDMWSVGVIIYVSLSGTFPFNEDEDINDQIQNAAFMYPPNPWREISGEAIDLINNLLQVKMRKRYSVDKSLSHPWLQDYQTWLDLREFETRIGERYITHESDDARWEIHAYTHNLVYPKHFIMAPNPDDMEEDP
Chain of UniProt Q9H1R3 (whole entry, looked up): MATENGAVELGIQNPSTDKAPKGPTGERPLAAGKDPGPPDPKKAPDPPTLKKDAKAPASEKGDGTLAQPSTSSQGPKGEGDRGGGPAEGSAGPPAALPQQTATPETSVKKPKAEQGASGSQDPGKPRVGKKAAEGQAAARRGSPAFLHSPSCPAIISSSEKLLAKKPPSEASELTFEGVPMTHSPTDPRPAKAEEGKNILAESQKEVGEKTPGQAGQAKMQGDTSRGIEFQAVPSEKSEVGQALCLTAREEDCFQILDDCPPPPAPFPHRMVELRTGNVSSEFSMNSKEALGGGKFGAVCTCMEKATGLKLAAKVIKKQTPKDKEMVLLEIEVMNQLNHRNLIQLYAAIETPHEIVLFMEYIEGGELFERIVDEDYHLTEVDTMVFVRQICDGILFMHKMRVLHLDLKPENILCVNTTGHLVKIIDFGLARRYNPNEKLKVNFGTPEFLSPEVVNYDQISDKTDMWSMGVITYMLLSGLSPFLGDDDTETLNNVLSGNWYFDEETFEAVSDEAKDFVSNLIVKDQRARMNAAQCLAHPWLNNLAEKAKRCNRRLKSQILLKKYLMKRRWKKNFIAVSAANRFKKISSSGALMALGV
Chain of UniProt Q12851 (whole entry, looked up): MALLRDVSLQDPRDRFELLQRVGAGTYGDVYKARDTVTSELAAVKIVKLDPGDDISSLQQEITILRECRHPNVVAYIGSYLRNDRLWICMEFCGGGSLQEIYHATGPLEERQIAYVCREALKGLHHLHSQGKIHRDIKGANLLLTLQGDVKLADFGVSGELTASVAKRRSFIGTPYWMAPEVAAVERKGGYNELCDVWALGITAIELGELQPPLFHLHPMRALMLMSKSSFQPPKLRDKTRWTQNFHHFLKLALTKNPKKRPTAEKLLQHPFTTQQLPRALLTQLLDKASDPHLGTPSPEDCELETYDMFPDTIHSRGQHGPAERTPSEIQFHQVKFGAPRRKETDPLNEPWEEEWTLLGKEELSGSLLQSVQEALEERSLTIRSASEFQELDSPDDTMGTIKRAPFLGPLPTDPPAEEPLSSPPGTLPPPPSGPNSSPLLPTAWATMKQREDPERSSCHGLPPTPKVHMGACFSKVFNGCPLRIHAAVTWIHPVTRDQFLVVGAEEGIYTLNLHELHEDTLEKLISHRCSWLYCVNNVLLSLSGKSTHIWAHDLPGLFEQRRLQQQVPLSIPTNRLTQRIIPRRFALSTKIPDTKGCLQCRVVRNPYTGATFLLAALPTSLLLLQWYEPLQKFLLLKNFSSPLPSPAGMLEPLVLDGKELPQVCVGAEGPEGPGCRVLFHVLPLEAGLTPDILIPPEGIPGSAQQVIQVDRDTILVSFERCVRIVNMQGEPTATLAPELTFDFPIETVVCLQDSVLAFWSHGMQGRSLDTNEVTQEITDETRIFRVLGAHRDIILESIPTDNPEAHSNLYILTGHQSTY
Chain of UniProt P53671 (whole entry, looked up): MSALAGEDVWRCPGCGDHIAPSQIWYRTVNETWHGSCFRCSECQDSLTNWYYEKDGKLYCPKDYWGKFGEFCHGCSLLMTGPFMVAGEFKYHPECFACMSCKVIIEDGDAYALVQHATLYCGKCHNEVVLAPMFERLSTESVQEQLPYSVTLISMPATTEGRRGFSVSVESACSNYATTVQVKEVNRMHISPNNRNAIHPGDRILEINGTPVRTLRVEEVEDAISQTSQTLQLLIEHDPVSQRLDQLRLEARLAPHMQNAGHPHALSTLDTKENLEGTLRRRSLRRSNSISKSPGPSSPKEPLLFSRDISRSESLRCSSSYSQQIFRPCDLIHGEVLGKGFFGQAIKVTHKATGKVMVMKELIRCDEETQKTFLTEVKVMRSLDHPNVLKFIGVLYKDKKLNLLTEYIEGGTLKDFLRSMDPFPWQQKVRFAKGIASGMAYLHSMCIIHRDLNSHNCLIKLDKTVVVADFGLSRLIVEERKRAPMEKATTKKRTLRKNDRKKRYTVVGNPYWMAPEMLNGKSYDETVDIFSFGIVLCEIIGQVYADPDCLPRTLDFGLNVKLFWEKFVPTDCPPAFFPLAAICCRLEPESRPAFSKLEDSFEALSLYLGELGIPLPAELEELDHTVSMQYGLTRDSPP
Chain of UniProt Q9HBH9 (whole entry, looked up): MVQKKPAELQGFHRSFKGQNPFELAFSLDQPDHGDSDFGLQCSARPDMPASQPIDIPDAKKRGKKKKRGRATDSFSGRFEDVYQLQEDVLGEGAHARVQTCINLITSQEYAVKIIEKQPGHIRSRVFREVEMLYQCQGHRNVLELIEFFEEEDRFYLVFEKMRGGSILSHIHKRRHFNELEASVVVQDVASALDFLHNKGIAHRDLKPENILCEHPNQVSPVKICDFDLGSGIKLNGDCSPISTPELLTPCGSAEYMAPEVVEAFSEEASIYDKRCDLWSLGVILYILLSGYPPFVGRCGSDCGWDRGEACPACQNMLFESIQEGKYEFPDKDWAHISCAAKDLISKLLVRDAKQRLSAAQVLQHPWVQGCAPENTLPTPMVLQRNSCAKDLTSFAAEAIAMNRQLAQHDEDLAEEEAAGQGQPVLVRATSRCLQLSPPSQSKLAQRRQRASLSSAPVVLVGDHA

Study 1 — method: competition with immobilised ligand; concentration: 1 µM
SMILES: CN1CCN(c2cnc3c(C4CCN(C(=O)c5ccc(OC(F)(F)F)cc5N)CC4)ncnc3c2)CC1
| target | effect on | remaining binding |
| --- | --- | --- |
| Serine/threonine-protein kinase 16 (STK16, Homo sapiens, UniProt O75716) | cell-free assay | 100% |
| MAP kinase-interacting serine/threonine-protein kinase 2 (MKNK2, Homo sapiens, UniProt Q9HBH9) | cell-free assay | 100% |
| Myosin light chain kinase 2, skeletal/cardiac muscle (MYLK2, Homo sapiens, UniProt Q9H1R3) | cell-free assay | 85% |
| Serine/threonine-protein kinase SBK1 (SBK1, Homo sapiens, UniProt Q52WX2) | cell-free assay | 100% |
| Serine/threonine-protein kinase D3 (PRKD3, Homo sapiens, UniProt O94806) | cell-free assay | 100% |
| Mitogen-activated protein kinase kinase kinase kinase 2 (MAP4K2, Homo sapiens, UniProt Q12851) | cell-free assay | 82% |
| Receptor-type tyrosine-protein kinase FLT3 (FLT3, Homo sapiens, UniProt P36888, D835H) | cell-free assay | 75% |
| Cyclin-dependent kinase-like 1 (CDKL1, Homo sapiens, UniProt Q00532) | binding | 94% |
| Serine/threonine-protein kinase Nek5 (NEK5, Homo sapiens, UniProt Q6P3R8) | cell-free assay | 100% |
| Mitogen-activated protein kinase kinase kinase 1 (MAP3K1, Homo sapiens, UniProt Q13233) | cell-free assay | 100% |
| Mitogen-activated protein kinase kinase kinase 15 (MAP3K15, Homo sapiens, UniProt Q6ZN16) | cell-free assay | 95% |
| Myosin light chain kinase family member 4 (MYLK4, Homo sapiens, UniProt Q86YV6) | cell-free assay | 100% |
| Tyrosine-protein kinase TXK (TXK, Homo sapiens, UniProt P42681) | binding | 88% |
| Ribosomal protein S6 kinase alpha-4, N-terminal kinase domain (RPS6KA4, Homo sapiens, UniProt O75676) | cell-free assay | 100% |
| LIM domain kinase 2 (LIMK2, Homo sapiens, UniProt P53671) | cell-free assay | 100% |

Study 2 — method: protein-binding microarray; molecule type: double-stranded DNA, one strand shown; sample: in vitro; concentration: 940 nM top; setting: 60-bp whole probe; added: salmon DNA 0.4 mg/ml; relative to: random background probes; direction: higher = stronger binding; constant ends, left off below: GCCTAGCAC … GTCTTGATTCGCTTGACGCTGCTG
Target: Interferon regulatory factor 5, full length, phosphomimetic (IRF5, Homo sapiens, UniProt Q13568-2, residues 1-514, S451D/S453D/S456D/S462D)
| Strand | fitted relative affinity [z-score] |
| --- | --- |
| GACTGACTGGGTATCGGGACGTGCTAG | 0.969 |
| ACTTCATTGCATATAGAAAAGTGCTAG | -0.123 |
| TTAGGCTTCCTTCTCCTTTAGTGCTAG | 0.276 |
| TTAGGACTGGGGTATAGGTTAGTGCTA | 0.248 |
| TTAGATCTCAGACTGGCTTAGTGCTAG | -0.571 |
| TATGTTGTCCAGGCTGGTCTCGTGCTA | -0.422 |
| GTTTATTTATTTTTACATTAGTGCTAG | 0.807 |
| GACGATATCAGTACCGAGACGTGCTAG | -0.0349 |

Study 3 — method: RNA Bind-n-Seq; molecule type: RNA; sample: in vitro; concentration: 1 µM; setting: whole 134-nt RNA, ends assumed; added: 150 mM KCl; relative to: input library; direction: higher = stronger binding
Target: Ras GTPase-activating protein-binding protein 1, C-terminal RGG region (G3BP1, Homo sapiens, UniProt Q13283)
Chain of UniProt Q13283 (whole entry, looked up): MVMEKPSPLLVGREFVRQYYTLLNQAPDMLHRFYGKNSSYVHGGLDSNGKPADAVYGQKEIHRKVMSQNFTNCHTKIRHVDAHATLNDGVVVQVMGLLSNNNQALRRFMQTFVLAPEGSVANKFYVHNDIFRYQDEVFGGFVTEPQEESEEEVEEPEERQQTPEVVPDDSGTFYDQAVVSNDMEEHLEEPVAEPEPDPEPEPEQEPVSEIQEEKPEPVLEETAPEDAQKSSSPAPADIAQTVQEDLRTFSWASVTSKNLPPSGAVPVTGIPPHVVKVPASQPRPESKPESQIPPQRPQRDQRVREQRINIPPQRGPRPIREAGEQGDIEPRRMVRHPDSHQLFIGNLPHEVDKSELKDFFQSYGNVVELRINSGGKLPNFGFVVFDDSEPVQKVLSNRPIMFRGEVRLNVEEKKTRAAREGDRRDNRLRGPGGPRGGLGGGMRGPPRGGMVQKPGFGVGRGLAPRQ
Constant ends, left off below: GGGAGUUCUACAGUCCGACGAUC … UGGAAUUCUCGGGUGUCAAGG
| Strand | log2 enrichment |
| --- | --- |
| CUAGAGAGCUGUAGUACACAUGGAUGAACGACGAGAAGAACAAAUUGUACAGUUACUGAAUUCUGUUCAAGCGAAGAAUGAUAAAGAGUC | -0.458 |
| UCCUGUGCUACACAUCGUAUGUACCGAAUCGGUUUUUUUGGUUUUUUUGGAAAAAAAGGAAAGUAUUAUGUUACGCCGUUCGGAUCUGCA | -1.35 |
| UCAAGUCCUGUGCUACACAUCGUAUGUACCGAAUCGGAAAAAGGUUUUUGGUGGAAAGUAUUAUGUUACGCCGUUCGGAUCUGCACUUCC | -1.29 |
| CCUGUGCUACACAUCGUAUGUACCGAAUCGGGCCCCCCGGGCCCCCCGGGGCCCCCCGGGGAAAGUAUUAUGUUACGCCGUUCGGAUCUG | -2.11 |
| CAAGUCCUGUGCUACACAUCGUAUGUACCGAAUCGGGUUUGGGAAAGGGAAAGGGAAAGUAUUAUGUUACGCCGUUCGGAUCUGCACUUC | 1.79 |
| UGGGAGGUGGAUUUUGUUUAUUCUUUUAGCUCAUUUCCAGGGGUGGGAAUUUUUUUUUAAUAUGUGUCAUGAAUAAAGUUGUUUUUGAAA | 3.23 |
| AGUCCUGUGCUACACAUCGUAUGUACCGAAUCAAAUUUAAAUUUUUUUAAAUUUAAAAAAGUAUUAUGUUACGCCGUUCGGAUCUGCACU | -2.89 |
| ACCAUGCAGGUGGGCAUCAUUGGGAAGUGGGGCAAGGGGGGGAUAGGGAGGGGGGUAACACUUUGGGAACAGGUGGUCCCAGGUCGUUUC | -1.18 |

Mixed results
| SMILES | tested on | test | test system | conditions | how to read | quantity | result |
| --- | --- | --- | --- | --- | --- | --- | --- |
| CC(C)n1cnc(-c2ccc(F)cc2)c1-c1ncc(C(=O)Nc2ccc(N3CCN(C)CC3)cc2)[nH]1 | – | – | human, idiopathic pulmonary fibrosis | 30 mg once daily, trial, treatment-emergent | – | grade 5 soft tissue infection | 0% |
| COC(=O)C[C@](O)(CCCC(C)(C)O)C(=O)O[C@@H]1C(OC)=C[C@]23CCCN2CCc2cc4c(cc2[C@H]13)OCO4 | Sarcocystis neurona | parasite growth | – | 10 µM, secondary screen | – | inhibition | 98.9% |
| Cc1cc(C)cc(C(=O)NOCCCCCC(=O)NO)c1 | mouse MPNST tumor cells | high-content nuclear imaging, refers to: cell number | – | 10 µM, 12 h, mean of 2 replicates | relative to: plate mean, higher = more cells | nuclei count | -0.614 z-score |
| Cc1nc2c([nH]1)-c1ccccc1N(C(=O)c1ccc(NC(=O)c3ccccc3-c3ccccc3)cc1)CC2 | A-375 | – | – | 100 µM, 36 h | – | viability | 95% |
| CC1=C(/C=C/C(C)=C/C=C/C(C)=C/C(=O)O)C(C)(C)CCC1 | – | – | NSG mouse, HuT78 xenograft | dose not given, end of study | – | tumour weight | 0.606 g and 0.75 g and 0.64 g and 0.649 g and 0.565 g |

For quick reference, copied from above (study 1):
| target | effect on | remaining binding |
| --- | --- | --- |
| Mitogen-activated protein kinase kinase kinase 15 (MAP3K15, Homo sapiens, UniProt Q6ZN16) | cell-free assay | 95% |
| Cyclin-dependent kinase-like 1 (CDKL1, Homo sapiens, UniProt Q00532) | binding | 94% |
| Myosin light chain kinase 2, skeletal/cardiac muscle (MYLK2, Homo sapiens, UniProt Q9H1R3) | cell-free assay | 85% |
| LIM domain kinase 2 (LIMK2, Homo sapiens, UniProt P53671) | cell-free assay | 100% |
